Published values from different studies.
Parts stem from different laboratories: compare values within a part only.

Block 1
Target: Histone acetyltransferase KAT6A, winged helix 1, GST fusion (KAT6A, Homo sapiens, UniProt Q92794, residues 1-85)
Technique: protein binding microarray
Form: double-stranded DNA, one strand shown
Sample: in vitro
Concentration: not given
Notes: 8-mer, flanks averaged, mean of 2 arrays, mostly near background
Baseline: not given
Reading: higher = stronger binding
Endpoint: E-score
Residues (chain): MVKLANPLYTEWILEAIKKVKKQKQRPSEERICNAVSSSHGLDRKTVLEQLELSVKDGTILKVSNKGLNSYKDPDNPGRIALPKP
CACTATCG: 0.05
ACTATCCG: 0.152
CCCTTACC: 0.0966
CCCGCTCC: 0.297
AATGTAGT: -0.158
ACATTGAC: 0.0451
CGGAAGGA: 0.043
CGGAGGAA: 0.0128
CGAAAGGC: 0.197
ACTATCCC: 0.0112
ACACCGGT: 0.152
TAAACCTA: -0.082
AATGACCC: 0.0474
CGCTGACC: 0.209
CATTCACC: 0.00352
CGCCAGAA: -0.119
CCGATGCC: 0.186
ACCTGGTG: -0.0597
GGTAGGAC: 0.0179
CAGGATCC: -0.0411
GGGCGATA: 0.129
AAGGTTAA: -0.0575
AATACAAA: -0.323
GCTTAGGA: -0.0443
CGTTTAGA: 0.0324

Block 2
Target: Ras GTPase-activating protein-binding protein 1, RRM domain (G3BP1, Homo sapiens, UniProt Q13283)
Chain of UniProt Q13283 (whole entry, looked up): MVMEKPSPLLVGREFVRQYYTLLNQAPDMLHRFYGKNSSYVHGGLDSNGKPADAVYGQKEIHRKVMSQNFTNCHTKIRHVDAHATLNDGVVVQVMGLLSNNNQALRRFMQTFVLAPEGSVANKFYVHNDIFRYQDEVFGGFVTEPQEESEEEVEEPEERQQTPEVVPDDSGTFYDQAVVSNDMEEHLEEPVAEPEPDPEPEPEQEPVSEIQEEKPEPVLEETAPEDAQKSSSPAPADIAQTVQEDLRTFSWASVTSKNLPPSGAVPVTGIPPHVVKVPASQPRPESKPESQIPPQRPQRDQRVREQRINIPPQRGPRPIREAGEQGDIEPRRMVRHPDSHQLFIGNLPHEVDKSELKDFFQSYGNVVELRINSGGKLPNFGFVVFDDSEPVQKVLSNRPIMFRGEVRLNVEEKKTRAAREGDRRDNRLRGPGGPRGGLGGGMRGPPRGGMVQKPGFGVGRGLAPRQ
Technique: RNA Bind-n-Seq
Form: RNA
Sample: in vitro
Concentration: 1 µM
Notes: whole 134-nt RNA, ends assumed
With: 150 mM KCl
Baseline: input library
Reading: higher = stronger binding
Endpoint: log2 enrichment
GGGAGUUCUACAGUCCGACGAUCUAGUCACCUACUGCCACCUUCGAAAAACACGGAGAGCACCUACCCAGAGGAGAAGGUAGAUUUGGAGUAAGCCGCCGUCGACAUAAUUCCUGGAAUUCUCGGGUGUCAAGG: -0.0143
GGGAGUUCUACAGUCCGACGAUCGUCCUGUGCUACACAUCGUAUGUACCGAAUCAAAGUGUGUGUGUGUGUGUGUGUGUAAAAAAGUAUUAUGUUACGCCGUUCGGAUCUGCAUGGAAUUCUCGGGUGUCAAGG: 0.0394
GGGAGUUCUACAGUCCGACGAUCAGUCCUGUGCUACACAUCGUAUGUACCGAAUCGGGGCCCCGGGGCCCCGGCCCCGGGAAAGUAUUAUGUUACGCCGUUCGGAUCUGCACUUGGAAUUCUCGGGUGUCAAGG: -0.929
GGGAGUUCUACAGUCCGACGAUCUGGGAGGUGGAUUUUGUUUAUUUUUUUAGCUCAUUUCCAGGGGUGGGAAUUUUUUUUUAAUAUGUGUCAUGAAUAAAGGUGUUUUUGAAAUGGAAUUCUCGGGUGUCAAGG: 1.24
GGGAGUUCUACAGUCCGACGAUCUCAAGUCCUGUGCUACACAUCGUAUGUACCGAAUCGGGUUGGUUGGGGUUGGGGAAAGUAUUAUGUUACGCCGUUCGGAUCUGCACUUCCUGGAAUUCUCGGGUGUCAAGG: 0.382
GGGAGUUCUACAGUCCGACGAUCACCAUGCAGGUGGGCAUCUUUGGGAAGUGGGGCAAGGGGGGGAUAGGGAGGGGGGUAACACUUUGGGAAUAGGUGGUCCCAGGUCGUUUCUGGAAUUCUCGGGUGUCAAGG: 0.655
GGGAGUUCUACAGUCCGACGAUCCACAGACAACACGCACCCACACAGACACAGAGGGAAGGGGUUGGGAUGCGGACAGGGUGCACAGCAGGGCGGGGUAGGACCCCAGCCCCUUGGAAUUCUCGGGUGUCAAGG: 0.342
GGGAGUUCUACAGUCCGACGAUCAGUCCUGUGCUACACAUCGUAUGUACCGAAUCGGGAAAAAAAGGGAGGGAAAAAGGGAAAGUAUUAUGUUACGCCGUUCGGAUCUGCACUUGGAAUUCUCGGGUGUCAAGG: 0.515
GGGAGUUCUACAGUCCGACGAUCUCCUCAAGUCCUGUGCUACACAUCGUAUGUACCGAAUCGGCGGGCGGGCGGAAAGUAUUAUGUUACGCCGUUCGGAUCUGCACUUCCAGCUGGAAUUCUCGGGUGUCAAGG: -0.293

Block 3
Target: Prothrombin, mature alpha-thrombin (F2, Homo sapiens, UniProt P00734)
Technique: aptamer microarray, sandwich
Form: DNA with 2'F-ANA
Sample: in vitro
Concentration: 200 nM
Notes: whole 15-mer aptamer, many near background
With: Cy3 exosite-II aptamer, 400 nM
Reading: higher = stronger binding
Endpoint: mean fluorescence intensity
Strand: GGTTGGTGTGGTTGG
2'F-ANA at 2 5 7 8 11 12 13: 117 a.u.
2'F-ANA at 3 7 9 10 12 14: 416 a.u.
2'F-ANA at 3 5 6 7 8 10 11 13 15: 67.6 a.u.
2'F-ANA at 1 3 5 6 7 8 10 11 13 14: 55.3 a.u.
2'F-ANA at 1 3 4 6 8 10 11 13: 50.7 a.u.
2'F-ANA at 2 4 10 11 13 14: 60.9 a.u.
2'F-ANA at 1 3 4 5 8 12 13 14: 47.1 a.u.
2'F-ANA at 1 2 3 4 7 8 10 13: 55 a.u.
2'F-ANA at 1 2 3 4 6 7 8 10: 64 a.u.
2'F-ANA at 4 7 8 9 12 14 15: 135 a.u.
2'F-ANA at 3 4 5 6 7 9 13: 57.3 a.u.
2'F-ANA at 1 2 3 6 7 8 10 11 14 15: 72.1 a.u.
2'F-ANA at 4 5 6 13 14 15: 47.8 a.u.
2'F-ANA at 1 2 4 9 10 11 12 13: 58.2 a.u.
2'F-ANA at 1 4 5 7 8 9 11 12 15: 90.9 a.u.
2'F-ANA at 1 2 5 6 7 9 11 14 15: 61.8 a.u.
2'F-ANA at 1 3 4 6 9 10 11 12 13 14 15: 54.1 a.u.
2'F-ANA at 2 3 4 6 7 9 10 11 13 14: 137 a.u.
2'F-ANA at 1 7 8 9 14 15: 67.8 a.u.
2'F-ANA at 1 6 7 10 12 14 15: 49.3 a.u.

Block 4
Target: Interferon regulatory factor 7, full length, phosphomimetic (IRF7, Homo sapiens, UniProt Q92985, residues 1-503, S471D/S472D/S475D/S476D/S477D/S483D/S484D/S487D)
Technique: protein-binding microarray
Form: double-stranded DNA, one strand shown
Sample: in vitro
Concentration: 2200 nM top
Notes: 60-bp whole probe
With: salmon DNA 0.4 mg/ml
Baseline: random background probes
Reading: higher = stronger binding
Endpoint: fitted relative affinity
Shared flanks, not repeated: GCCTAGCAC … GTCTTGATTCGCTTGACGCTGCTG
Residues (chain): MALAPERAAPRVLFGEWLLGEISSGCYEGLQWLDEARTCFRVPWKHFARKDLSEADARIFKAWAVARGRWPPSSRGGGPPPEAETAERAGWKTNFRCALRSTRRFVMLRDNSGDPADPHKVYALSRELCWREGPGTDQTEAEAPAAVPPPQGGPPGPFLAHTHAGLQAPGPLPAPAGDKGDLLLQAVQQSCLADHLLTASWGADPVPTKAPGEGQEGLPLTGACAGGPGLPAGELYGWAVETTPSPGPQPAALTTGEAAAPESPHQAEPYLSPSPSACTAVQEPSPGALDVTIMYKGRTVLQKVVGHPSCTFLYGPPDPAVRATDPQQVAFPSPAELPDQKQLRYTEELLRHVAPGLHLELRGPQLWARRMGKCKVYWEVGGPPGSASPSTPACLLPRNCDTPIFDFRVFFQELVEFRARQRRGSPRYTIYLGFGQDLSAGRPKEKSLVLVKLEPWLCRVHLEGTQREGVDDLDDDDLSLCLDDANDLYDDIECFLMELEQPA
TTACAGCTATTTTTAGGATGGTGCTAG: -0.0529 z-score
TTAGGTTTACTACTGCTTTAGTGCTAG: 0.636 z-score
TTAGATTTCAGTATGGATTAGTGCTAG: 0.556 z-score
TCAGCCAGCTCTTTCGTACTGTGCTAG: 1.3 z-score
CTCGCCTGGGGATGCTAACAGTGCTAG: -0.459 z-score
TTAGAACTGGAGTATCGATTAGTGCTA: -0.551 z-score
TTAGGATTCCTTATCCTTTAGTGCTAG: 0.779 z-score
GACGGTTTGGGTATCGGGACGTGCTAG: 0.652 z-score
GACGATTTCAGACTCGAGACGTGCTAG: 0.479 z-score
TAAGATATCAGTCTCGATTAGTGCTAG: 0.221 z-score
TTAGGTTTTGGTCTCGGTTAGTGCTAG: 1.41 z-score
GACGATTTCGGGGTTCGAGACGTGCTA: 1.72 z-score
TTAGGTTTCGGTATCGGTTTGTGCTAG: 8.83 z-score
GACGGTCTGCTACTGCTGACGTGCTAG: -0.0565 z-score
CTCATTTTCATTTTGTGTCTGTGCTAG: 7.06 z-score
CTTCTCCTCCAGGTTCTCTGAGTGCTA: 0.715 z-score
GCCATTTTCCCTCCCTAATTGTGCTAG: 3.6 z-score
TTAGGACTGCTACTGCTTGAGTGCTAG: -0.239 z-score
TTAGATTTCAGACTGGATTCGTGCTAG: 0.407 z-score

A few entries again (block 4):
TTAGAACTGGAGTATCGATTAGTGCTA: -0.551 z-score
TTAGGATTCCTTATCCTTTAGTGCTAG: 0.779 z-score
GACGGTTTGGGTATCGGGACGTGCTAG: 0.652 z-score
GACGATTTCAGACTCGAGACGTGCTAG: 0.479 z-score
TAAGATATCAGTCTCGATTAGTGCTAG: 0.221 z-score
TTAGGTTTTGGTCTCGGTTAGTGCTAG: 1.41 z-score
GACGATTTCGGGGTTCGAGACGTGCTA: 1.72 z-score
